Measured values collected from several papers.
Numbers after ± are the reported error.
B1: human MSRB3; sequence looked up; chain GSCRDKKNCKVVFSQQELRKRLTPLQYHVTQEKGTESAFEGEYTHHKDPGIYKCVVCGTPLFKSETKFDSGSGWPSFHDVINSEAITFTDDFSYGMHRVETSCSQCGAHLGHIFDDGPRPTGKRYCINSAALSFTPADSSGTAEGGSGVASPAQADKAEL
B2: PYCR2 R251C (Homo sapiens, UniProt Q96C36); chain MSVGFIGAGQLAYALARGFTAAGILSAHKIIASSPEMNLPTVSALRKMGVNLTRSNKETVKHSDVLFLAVKPHIIPFILDEIGADVQARHIVVSCAAGVTISSVEKKLMAFQPAPKVIRCMTNTPVVVQEGATVYATGTHALVEDGQLLEQLMSSVGFCTEVEEDLIDAVTGLSGSGPAYAFMALDALADGGVKMGLPRRLAIQLGAQALLGAAKMLLDSEQHPCQLKDNVCSPGGATIHALHFLESGGFCSLLINAVEASCIRTRELQSMADQEKISPAALKKTLLDRVKLESPTVSTLTPSSPGKLLTRSLALGGKKD
B3: SCO6712 S292F/Y229F (Streptomyces coelicolor, UniProt Q9XAL8); chain AKGITARTAPAGGEVRHLKMYAEKLADGQMGYGFEKGKASVPGPLIEVNEGDTLHIEFTNTMDVRASLHVHGLDYEISSDGTAMNKSDVEPGGTRTYTWRTHKPGRRDDGTWRPGSAGYWHYHDHVVGTEHGTGGIRNGLYGPVIVRRKGDVLPDATHTIVFNDMTINNRKPHTGPDFEATVGDRVEIVMITHGEFYHTFHMHGHRWADNRTGILTGPDDPSRVIDNKITGPADSFGFQIIAGEGVGAGAWMYHCHVQFHSDMGMVGLFLVKKPDGTIPGYEPHEHGGATAKSGESGEPTGGAAAHEHEH
B4: human NPL4; sequence looked up; chain AESIIIRVQSPDGVKRITATKRETAATFLKKVAKEFGFQNNGFSVYINRNKTGEITASSNKSLNLLKIKHGDLLFLFPSSLAGPSSEMETSVPPGFKVFGAPNVVEDEIDQYLSKQDGKIYRSRDPQLCRHGPLGKCVHCVPLEPFDEDYLNHLEPPVKHMSFHAYIRKLTGGADKGKFVALENISCKIKSGCEGHLPWPNGICTKCQPSAITLNRQKYRHVDNIMFENHTVADRFLDFWRKTGNQHFGYLYGRYTEHKDIPLGIRAEVAAIYEPPQIGTQNSLELLEDPKAEVVDEIAAKLGLRKVGWIFTDLVSEDTRKGTVRYSRNKDTYFLSSEECITAGDFQNKHPNMCRLSPDGHFGSKFVTAVATGGPDNQVHFEGYQVSNQCMALVRDECLLPCKDAPELGYAKESSSEQYVPDVFYKDVDKFGNEITQLARPLPVEYLIIDITTTFPKDPVYTFSISQNPFPIENRDVLGETQDFHSLATYLSQNTSSVFLDTISDFHLLLFLVTNEVMPLQDSISLLLEAVRTRNEELAQTWKRSEQWATIEQLCSTVGGQLPGLHEYGAVGGSTHTATAAMWACQHCTFMNQPGTGHCEMCSLPRT
B5: enzyme S252E/S281E/S285E/S287E (Schizosaccharomyces pombe, UniProt P78804); chain MSTPYEPEFQQAYKEIVGSIESSKLFEVHPELKRVLPIISIPERVLEFRVTWEDDKGNCRVNTGYRVQFNSALGPYKGGLRFHPSVNLSILKFLGFEQIFKNALTGLPMGGGKGGSDFDPKGKSDNEIRRFSQAFMRQLFRYIGPQTDVPAGDIGVTGFVVMHMFGEYKRLRNEYSGVVTGKHMLTGGSNIRPEATGYGVVYYVKHMIEHRTKGAETLKGKRVAISGSGNVAQYAALKCIQEGAIVKSISDEKGVLIAKTAEGLVPEEIHEIMALKEKRAEIADEAELCKKHHYIAGARPWTNVGEIDIALPCATQNEVSGEEAAALIKQGCRYVAEGSNMGSSAEAVEVFEKSRASGEGCWLAPGKAANAGGVAVSGLEMAQNAQFSTWTHAEVDAKLAGIMQNIFEQSTDVASKYCDSGSNNIPSLVDGANIAGFLKVATAMQAVGDWW
B6: enzyme C33S (UniProt A0A0P0CH59); chain MRIALFSDIHANLPALEAVLANMETQQLDAIYSLGDLVGYAPWPNEVVAEIRKRRIPTIAGNYDEGVGLWSPNCGCAYKTDTEKDLGQQSIDFTNNVVTEETRKYLRMLPRQLRLTFMDGSKEENKIELLLVHGSPRKINEYLFEDRPEKSFLKMMEEANADLLFFGHTHKPYHRAMPYEHEGQTRYRHAINIGSVGKPKDGDPRTGYVVVELTPESSLTQKDSIKVEFIRVPYDVETAAQAVEASPLPNEFAQMLRTA
B7: nfsB (Escherichia coli, UniProt P38489); chain MDIISVALKRHSTKAFDASKKLTPEQAEQIKTLLQYSPSSTNSQPWHFIVASTEEGKARVAKSAAGNYVFNERKMLDASHVVVFCAKTAMDDVWLKLVVDQEDADGRFATPEAKAANDKGRKFFADMHRKDLHDDAEWMAKQVYLNVGNFLLGVAALGLDAVPIEGFDAAILDAEFGLKEKGYTSLVVVPVGHHSVEDFNATLPKSRLPQNITLTEV
B8: GRHPR (Homo sapiens, UniProt Q9UBQ7); chain MRPVRLMKVFVTRRIPAEGRVALARAADCEVEQWDSDEPIPAKELERGVAGAHGLLCLLSDHVDKRILDAAGANLKVISTMSVGIDHLALDEIKKRGIRVGYTPDVLTDTTAELAVSLLLTTCRRLPEAIEEVKNGGWTSWKPLWLCGYGLTQSTVGIIGLGRIGQAIARRLKPFGVQRFLYTGRQPRPEEAAEFQAEFVSTPELAAQSDFIVVACSLTPATEGLCNKDFFQKMKETAVFINISRGDVVNQDDLYQALASGKIAAAGLDVTSPEPLPTNHPLLTLKNCVILPHIGSATHRTRNTMSLLAANNLLAGLRGEPMPSELKL
B9: enzyme C429A (Methanosarcina mazei, UniProt Q8PVB1); chain MSEQRSVPLREHLLALKPCRHGGLIQETSETYGIPENEILDFSANFNPLGSPFDYPENGLNFEDIIKKSCGKLLEYPDNRYVEFREAAARFVGLGVTPQSIVPGNGSTEIVRLVVESVIEKGDKVLLPWPTFGEYEMQCRITGAEPVCPSQEEVNTLPDEVLEEAKILFICNPNNPTGKLRTREELKVLAERCREHKTLLYVDEAFIELSDPSQSVADLPAENNYVFVMRSLTKDFAIPGIRMGFGIAPPAMADILNTARLSWNLGAIANNTGIALLNIEGGIDSPYLKKAREMILKEGETLKAKIDRIRGFEAGEVNVNFILVDVSKFMLNSSELTARLAARGVLVRDCVSFHGLGKNYIRVAVRTEKENDRLIAAIGDVITEWGREQAKNELQHVIEKASEEGIGGRKTCEYYPCHFEGQNCTFCFAPFYPCENEKTGGKWIQSSRGGRVWSCVDCHLVHKKEIAQKILDCLMHEGDTDELVKVAWKEVMEPIL
Sequence of UniProt Q978S7 (whole entry, looked up): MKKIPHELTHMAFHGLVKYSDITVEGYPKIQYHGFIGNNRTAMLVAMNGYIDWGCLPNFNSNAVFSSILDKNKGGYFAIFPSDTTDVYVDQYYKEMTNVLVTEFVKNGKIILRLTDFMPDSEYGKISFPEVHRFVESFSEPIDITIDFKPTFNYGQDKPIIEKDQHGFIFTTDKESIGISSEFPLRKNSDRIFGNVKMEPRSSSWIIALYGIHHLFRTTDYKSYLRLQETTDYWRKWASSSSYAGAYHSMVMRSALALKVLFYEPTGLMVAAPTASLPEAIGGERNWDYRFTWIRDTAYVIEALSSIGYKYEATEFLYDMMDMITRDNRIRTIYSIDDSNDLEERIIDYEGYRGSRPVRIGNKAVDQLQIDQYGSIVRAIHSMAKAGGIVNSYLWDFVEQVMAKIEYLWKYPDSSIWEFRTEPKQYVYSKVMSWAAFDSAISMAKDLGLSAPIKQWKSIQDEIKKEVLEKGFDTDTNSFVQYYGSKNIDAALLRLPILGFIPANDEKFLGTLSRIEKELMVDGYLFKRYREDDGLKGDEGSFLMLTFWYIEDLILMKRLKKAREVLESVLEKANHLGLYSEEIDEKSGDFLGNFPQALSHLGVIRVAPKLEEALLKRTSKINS
Sequence of UniProt P26368 (whole entry, looked up): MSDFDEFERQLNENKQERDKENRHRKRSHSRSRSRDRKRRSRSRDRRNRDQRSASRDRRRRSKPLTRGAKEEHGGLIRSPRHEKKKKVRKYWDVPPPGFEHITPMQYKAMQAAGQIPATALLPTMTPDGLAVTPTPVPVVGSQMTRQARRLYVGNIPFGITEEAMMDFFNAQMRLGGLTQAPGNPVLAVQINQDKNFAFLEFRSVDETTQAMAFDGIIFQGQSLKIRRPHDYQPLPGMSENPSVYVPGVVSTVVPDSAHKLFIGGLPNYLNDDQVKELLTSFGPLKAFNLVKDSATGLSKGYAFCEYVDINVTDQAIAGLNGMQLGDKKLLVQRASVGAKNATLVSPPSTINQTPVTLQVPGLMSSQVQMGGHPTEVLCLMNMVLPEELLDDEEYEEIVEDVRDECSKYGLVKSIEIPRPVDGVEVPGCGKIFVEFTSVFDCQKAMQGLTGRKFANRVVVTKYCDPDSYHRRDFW
Sequence of UniProt P05181 (whole entry, looked up): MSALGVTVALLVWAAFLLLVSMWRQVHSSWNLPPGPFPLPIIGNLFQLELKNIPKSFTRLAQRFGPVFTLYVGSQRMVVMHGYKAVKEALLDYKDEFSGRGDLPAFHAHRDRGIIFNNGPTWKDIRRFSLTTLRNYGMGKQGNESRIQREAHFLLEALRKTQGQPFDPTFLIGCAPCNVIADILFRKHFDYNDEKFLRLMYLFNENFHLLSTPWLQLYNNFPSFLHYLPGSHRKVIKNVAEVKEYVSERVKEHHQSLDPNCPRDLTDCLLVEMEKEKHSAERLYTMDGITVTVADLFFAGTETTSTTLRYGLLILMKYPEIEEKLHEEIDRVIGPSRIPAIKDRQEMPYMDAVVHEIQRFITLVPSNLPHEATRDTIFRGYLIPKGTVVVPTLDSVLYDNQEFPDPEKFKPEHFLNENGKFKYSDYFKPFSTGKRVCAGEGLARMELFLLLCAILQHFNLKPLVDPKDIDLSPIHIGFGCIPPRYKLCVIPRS
Sequence of UniProt Q00535 (whole entry, looked up): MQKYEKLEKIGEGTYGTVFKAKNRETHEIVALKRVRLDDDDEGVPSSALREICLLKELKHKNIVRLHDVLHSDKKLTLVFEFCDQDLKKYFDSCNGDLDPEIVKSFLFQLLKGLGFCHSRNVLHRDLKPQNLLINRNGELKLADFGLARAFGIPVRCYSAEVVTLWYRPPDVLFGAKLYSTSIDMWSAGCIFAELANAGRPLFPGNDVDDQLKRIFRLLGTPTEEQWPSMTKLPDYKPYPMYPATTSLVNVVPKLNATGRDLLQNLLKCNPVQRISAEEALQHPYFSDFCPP

Substance | target or system | assay | test system | setting | how to read | measurement | result
B1 (human MSRB3) | CYB5R4 knockout human cells | PP6 interaction, 3xFLAG-PP6C IP-MS | – | concentration not given | reference: CYB5R4 KO over parental | log2 fold change | -1.68
B2 (PYCR2 R251C) | NC(=O)C1=CN([C@@H]2O[C@H](COP(=O)(O)OP(=O)(O)OC[C@H]3O[C@@H](n4cnc5c(N)ncnc54)[C@H](OP(=O)(O)O)[C@@H]3O)[C@@H](O)[C@H]2O)C=CC1 | steady-state kinetics | – | pH 7.5, 37 °C, apparent, cofactor varied, together with: DL-P5C 5000 µM | – | kcat | 1.8 ± 0.1 s⁻¹
B3 (SCO6712 S292F/Y229F) | CCn1c(=NN=c2sc3cc(S(=O)(=O)O)ccc3n2CC)sc2cc(S(=O)(=O)O)ccc21 | steady-state kinetics | – | pH 7, 37 °C, NaCl 150 mM, together with: O2 cosubstrate | – | kcat | 2.8 ± 0.2 s⁻¹
enzyme (Thermoplasma volcanium, UniProt Q978S7) | OC[C@H]1O[C@H](O[C@H]2O[C@H](CO)[C@@H](O)[C@H](O)[C@H]2O)[C@H](O)[C@@H](O)[C@@H]1O | steady-state kinetics | – | pH 3.7, 30 °C | – | kcat | 26.6 ± 0.3 s⁻¹
CYP2E1 (Homo sapiens, UniProt P05181) | O=[N+]([O-])c1ccc(O)cc1 | steady-state kinetics | – | pH 7.4, 37 °C | – | kcat | 0.22 ± 0.0267 s⁻¹
B4 (human NPL4) | CYB5R4 knockout human cells | PP6 interaction, 3xFLAG-PP6C IP-MS | – | concentration not given | reference: CYB5R4 KO over parental | log2 fold change | -1.35
enzyme M50A (Homo sapiens, UniProt Q08623) | O=c1[nH]cc([C@@H]2O[C@H](COP(=O)(O)O)[C@@H](O)[C@H]2O)c(=O)[nH]1 | steady-state kinetics | – | pH 7, 25 °C | – | kcat | 0.333 s⁻¹
B5 (enzyme S252E/S281E/S285E/S287E) | NC(=O)c1ccc[n+]([C@@H]2O[C@H](COP(=O)(O)OP(=O)(O)OC[C@H]3O[C@@H](n4cnc5c(N)ncnc54)[C@H](O)[C@@H]3O)[C@@H](O)[C@H]2O)c1 | steady-state kinetics | – | pH 7, 30 °C, apparent | – | kcat | 0.26 ± 0.01 s⁻¹
B6 (enzyme C33S) | O=[N+]([O-])c1ccc(OP(=O)(O)O)cc1 | steady-state kinetics | – | pH 7, 37 °C, together with: Ni2+ 0.25 mM | – | kcat | 0.07 ± 0.005 s⁻¹
B7 (nfsB) | NC(=O)N/N=C/c1ccc([N+](=O)[O-])o1 | steady-state kinetics | – | pH 7, 37 °C, together with: NADPH 110 µM | – | kcat | 41 ± 3 s⁻¹
B8 (GRHPR) | O=CC(=O)O | steady-state kinetics | – | pH 7.5, 37 °C, apparent, together with: NADPH 200 µM | – | kcat | 63 s⁻¹
AUUUCCCUU (ssRNA) | U2AF2 148-342 (Homo sapiens, UniProt P26368) | sequencing of bound RNA | RNA | motif only | – | Kd | 2.64 µM
B9 (enzyme C429A) | Nc1ncnc2c1ncn2[C@@H]1O[C@H](COP(=O)(O)OP(=O)(O)OP(=O)(O)O)[C@@H](O)[C@H]1O | steady-state kinetics | – | pH 8.5, 25 °C, apparent, anoxic, together with: L-Thr 10 mM | – | kcat | 0.18 ± 0.001 s⁻¹
KEAFWDRCLSVINLMSTKMLQINA | Cyclin-dependent kinase 5, with p25 (CDK5, Homo sapiens, UniProt Q00535) | phosphotransferase activity, radiometric | peptide | concentration not given, 10% DMSO, together with: histone substrate | reference: p5-WT peptide | activity change | 61%

Excerpt of the above:
Substance | target or system | assay | test system | setting | how to read | measurement | result
B6 (enzyme C33S) | O=[N+]([O-])c1ccc(OP(=O)(O)O)cc1 | steady-state kinetics | – | pH 7, 37 °C, together with: Ni2+ 0.25 mM | – | kcat | 0.07 ± 0.005 s⁻¹
